Measured values of several laboratories.
Lines come from different studies, so protocols differ. “And” joins repeats or separate records; there may be more than shown. Numbers after ± are the reported error.
Glutamate receptor ionotropic, kainate 3: Glutamate receptor ionotropic, kainate 3 (Rattus norvegicus, UniProt P42264)
UniProt P42264, sequence (whole entry, looked up): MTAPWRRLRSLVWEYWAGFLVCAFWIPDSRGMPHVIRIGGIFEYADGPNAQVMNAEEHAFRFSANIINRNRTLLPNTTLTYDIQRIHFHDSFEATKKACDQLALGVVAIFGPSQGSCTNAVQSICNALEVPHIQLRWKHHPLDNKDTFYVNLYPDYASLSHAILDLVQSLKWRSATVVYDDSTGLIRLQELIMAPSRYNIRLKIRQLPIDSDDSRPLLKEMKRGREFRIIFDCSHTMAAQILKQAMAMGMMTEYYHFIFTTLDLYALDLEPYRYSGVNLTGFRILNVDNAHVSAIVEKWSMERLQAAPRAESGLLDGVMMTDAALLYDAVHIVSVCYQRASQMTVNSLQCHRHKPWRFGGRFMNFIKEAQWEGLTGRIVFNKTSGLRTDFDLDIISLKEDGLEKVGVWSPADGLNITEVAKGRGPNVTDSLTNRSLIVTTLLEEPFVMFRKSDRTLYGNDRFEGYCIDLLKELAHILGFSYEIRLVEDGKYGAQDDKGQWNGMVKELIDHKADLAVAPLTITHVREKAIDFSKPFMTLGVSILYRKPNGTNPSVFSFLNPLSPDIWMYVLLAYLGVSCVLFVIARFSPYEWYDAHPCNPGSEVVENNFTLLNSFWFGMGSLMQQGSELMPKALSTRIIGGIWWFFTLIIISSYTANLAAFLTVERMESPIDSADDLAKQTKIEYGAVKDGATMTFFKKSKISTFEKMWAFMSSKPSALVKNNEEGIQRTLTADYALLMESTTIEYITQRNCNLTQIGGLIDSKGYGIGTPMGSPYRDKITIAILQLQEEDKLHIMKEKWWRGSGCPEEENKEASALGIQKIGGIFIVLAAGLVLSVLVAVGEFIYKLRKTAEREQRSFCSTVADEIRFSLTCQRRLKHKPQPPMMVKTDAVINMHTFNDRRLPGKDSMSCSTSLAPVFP
DNA polymerase III PolC V741I: DNA polymerase III PolC (Clostridioides difficile, UniProt Q18BG8, V741I)
Vesicular acetylcholine transporter: Vesicular acetylcholine transporter (Rattus norvegicus, UniProt Q62666)
UniProt Q62666, sequence (whole entry, looked up): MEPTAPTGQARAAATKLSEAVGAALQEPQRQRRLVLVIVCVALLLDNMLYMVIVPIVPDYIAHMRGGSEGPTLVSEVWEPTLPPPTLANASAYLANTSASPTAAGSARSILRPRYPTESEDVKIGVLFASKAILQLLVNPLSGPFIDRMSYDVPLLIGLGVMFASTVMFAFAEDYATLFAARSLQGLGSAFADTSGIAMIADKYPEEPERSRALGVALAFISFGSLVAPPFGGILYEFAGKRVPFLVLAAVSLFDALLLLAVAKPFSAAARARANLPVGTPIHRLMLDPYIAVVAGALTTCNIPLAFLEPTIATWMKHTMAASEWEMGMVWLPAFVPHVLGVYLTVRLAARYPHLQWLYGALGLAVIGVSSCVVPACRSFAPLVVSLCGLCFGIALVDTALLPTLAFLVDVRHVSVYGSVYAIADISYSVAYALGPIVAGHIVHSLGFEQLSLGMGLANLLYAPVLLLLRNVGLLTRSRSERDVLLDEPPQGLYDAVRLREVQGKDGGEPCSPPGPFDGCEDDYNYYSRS
Urea transporter 1: Urea transporter 1 (Homo sapiens, UniProt Q13336)
UniProt Q13336, sequence (whole entry, looked up): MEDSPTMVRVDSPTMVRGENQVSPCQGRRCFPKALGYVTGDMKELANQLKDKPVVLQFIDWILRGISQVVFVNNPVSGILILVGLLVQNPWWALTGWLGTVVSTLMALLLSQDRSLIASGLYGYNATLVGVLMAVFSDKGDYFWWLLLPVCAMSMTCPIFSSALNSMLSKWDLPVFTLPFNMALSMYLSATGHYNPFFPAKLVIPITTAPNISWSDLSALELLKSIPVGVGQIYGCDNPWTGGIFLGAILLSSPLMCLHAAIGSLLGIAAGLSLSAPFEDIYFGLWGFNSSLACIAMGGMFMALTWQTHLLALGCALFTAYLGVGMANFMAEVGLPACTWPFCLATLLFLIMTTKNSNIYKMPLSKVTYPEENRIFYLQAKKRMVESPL
fucose-binding lectin LecB: fucose-binding lectin LecB (Pseudomonas aeruginosa, UniProt A0A0H2ZE85)
Gabrg2/Gabra6 α6+/γ2− interface: Gabrg2/Gabra6, α6+/γ2− interface (Rattus norvegicus, UniProt P18508+P30191)
UniProt Q9NWT6, sequence (whole entry, unmodified, looked up): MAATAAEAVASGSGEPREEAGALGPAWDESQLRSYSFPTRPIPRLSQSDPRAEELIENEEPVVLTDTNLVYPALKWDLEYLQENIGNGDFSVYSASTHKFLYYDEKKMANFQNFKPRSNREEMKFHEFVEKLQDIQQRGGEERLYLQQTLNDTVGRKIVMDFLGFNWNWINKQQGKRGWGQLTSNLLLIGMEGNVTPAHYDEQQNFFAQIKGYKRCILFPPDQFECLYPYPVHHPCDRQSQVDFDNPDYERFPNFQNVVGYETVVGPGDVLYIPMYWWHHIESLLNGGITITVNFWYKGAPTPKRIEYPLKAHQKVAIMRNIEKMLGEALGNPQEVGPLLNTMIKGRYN
UniProt P30191, sequence (whole entry, looked up): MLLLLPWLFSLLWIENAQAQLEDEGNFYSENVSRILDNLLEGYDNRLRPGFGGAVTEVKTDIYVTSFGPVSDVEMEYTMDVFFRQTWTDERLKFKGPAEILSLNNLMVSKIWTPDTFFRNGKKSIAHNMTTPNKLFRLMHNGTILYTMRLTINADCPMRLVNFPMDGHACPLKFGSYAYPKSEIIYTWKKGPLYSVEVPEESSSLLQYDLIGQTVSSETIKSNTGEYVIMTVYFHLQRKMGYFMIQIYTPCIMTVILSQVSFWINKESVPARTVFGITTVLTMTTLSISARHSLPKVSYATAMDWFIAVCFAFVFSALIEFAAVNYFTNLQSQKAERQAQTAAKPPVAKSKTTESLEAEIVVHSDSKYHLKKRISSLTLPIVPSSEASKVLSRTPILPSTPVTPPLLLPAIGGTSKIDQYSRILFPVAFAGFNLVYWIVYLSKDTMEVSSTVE
UniProt P0AF12, sequence (whole entry, looked up): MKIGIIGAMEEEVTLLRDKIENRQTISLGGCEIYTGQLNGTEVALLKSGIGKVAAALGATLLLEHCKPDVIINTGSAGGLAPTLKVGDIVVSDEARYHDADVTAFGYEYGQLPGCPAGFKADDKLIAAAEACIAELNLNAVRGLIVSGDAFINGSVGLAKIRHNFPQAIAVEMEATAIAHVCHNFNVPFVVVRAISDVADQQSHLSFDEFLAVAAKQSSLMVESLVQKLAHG
UniProt P18508, sequence (whole entry, looked up): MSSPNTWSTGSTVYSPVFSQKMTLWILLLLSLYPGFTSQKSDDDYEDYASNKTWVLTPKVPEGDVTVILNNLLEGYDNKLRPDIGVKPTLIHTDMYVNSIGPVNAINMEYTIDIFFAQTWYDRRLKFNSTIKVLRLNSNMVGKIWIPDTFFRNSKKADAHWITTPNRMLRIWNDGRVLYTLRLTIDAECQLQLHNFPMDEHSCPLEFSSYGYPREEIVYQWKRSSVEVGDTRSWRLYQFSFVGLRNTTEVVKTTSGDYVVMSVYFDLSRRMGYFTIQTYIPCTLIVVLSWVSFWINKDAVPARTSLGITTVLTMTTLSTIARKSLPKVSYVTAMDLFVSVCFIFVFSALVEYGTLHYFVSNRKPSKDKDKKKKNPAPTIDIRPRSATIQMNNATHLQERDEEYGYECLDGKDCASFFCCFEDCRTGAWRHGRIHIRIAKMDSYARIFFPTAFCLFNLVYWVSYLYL
UniProt P47898, sequence (whole entry, looked up): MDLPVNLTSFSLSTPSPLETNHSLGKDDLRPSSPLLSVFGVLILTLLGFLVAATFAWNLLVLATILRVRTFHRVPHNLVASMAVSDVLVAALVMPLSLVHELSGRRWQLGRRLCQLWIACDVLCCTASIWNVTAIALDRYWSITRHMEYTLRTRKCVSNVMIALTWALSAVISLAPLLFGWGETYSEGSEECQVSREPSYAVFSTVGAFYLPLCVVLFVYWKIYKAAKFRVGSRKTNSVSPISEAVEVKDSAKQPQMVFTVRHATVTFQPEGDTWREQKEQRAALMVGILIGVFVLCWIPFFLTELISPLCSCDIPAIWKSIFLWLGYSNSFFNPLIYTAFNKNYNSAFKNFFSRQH
UniProt Q96P65, sequence (whole entry, looked up): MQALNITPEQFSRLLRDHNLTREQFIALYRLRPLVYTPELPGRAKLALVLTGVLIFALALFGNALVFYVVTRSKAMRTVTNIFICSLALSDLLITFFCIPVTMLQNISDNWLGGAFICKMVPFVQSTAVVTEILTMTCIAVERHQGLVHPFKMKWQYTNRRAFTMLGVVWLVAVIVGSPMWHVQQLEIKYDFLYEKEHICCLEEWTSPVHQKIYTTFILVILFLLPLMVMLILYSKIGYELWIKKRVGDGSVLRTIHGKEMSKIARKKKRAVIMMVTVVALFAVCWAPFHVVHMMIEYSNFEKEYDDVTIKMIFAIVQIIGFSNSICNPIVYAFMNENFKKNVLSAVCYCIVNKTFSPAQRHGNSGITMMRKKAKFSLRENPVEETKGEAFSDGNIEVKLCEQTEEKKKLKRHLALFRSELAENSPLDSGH
UniProt P10636, sequence (whole entry, looked up): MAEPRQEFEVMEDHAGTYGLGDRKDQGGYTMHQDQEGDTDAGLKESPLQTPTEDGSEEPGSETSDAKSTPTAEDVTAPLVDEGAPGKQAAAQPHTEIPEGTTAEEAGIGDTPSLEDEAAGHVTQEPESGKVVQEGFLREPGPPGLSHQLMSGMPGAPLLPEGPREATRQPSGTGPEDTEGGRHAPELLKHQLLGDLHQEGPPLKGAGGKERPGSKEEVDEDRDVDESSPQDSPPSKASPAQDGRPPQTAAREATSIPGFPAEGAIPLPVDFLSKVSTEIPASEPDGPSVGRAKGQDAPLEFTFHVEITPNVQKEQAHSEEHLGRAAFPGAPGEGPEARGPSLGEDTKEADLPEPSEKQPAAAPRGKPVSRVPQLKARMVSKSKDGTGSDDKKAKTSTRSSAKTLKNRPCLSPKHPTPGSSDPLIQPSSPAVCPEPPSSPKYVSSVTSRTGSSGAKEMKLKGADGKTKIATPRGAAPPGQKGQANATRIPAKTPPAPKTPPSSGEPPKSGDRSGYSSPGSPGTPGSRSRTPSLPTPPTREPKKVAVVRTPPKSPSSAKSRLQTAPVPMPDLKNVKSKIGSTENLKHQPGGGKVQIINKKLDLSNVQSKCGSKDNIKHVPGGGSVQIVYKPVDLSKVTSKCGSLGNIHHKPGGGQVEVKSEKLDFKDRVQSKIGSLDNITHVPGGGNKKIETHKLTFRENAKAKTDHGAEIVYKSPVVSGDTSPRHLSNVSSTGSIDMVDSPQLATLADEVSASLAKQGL

Structure (SMILES) | target or system | assay | system | setting | how to read | endpoint | value
O=C1CCc2cc(-c3cccc(OC(=O)[C@H]4[C@H](c5ccccc5)[C@@H](C(=O)O)[C@H]4c4ccccc4)c3)ccc2N1 | FABP5 (Homo sapiens, UniProt Q01469) | binding |  |  |  | Ki | 7.59 ± 1.11 µM
CSCC[C@H](NC(=O)CNC(=O)[C@H](Cc1ccccc1)NC(=O)[C@H](CC(=O)O)NC(=O)CNC(=O)c1ccc2c(c1)C(=O)OC21c2ccc(N(C)C)cc2Oc2cc(N(C)C)ccc21)C(=O)N[C@@H](CO)C(=O)N[C@@H](CCCNC(=N)N)C(=O)N[C@@H](CC(=O)O)C(=O)N[C@H](C(=O)N[C@@H](Cc1ccc(OP(=O)(O)O)cc1)C(=O)N[C@@H](CO)C(=O)N[C@H](C(=O)N[C@@H](CC(=O)O)C(=O)N[C@@H](Cc1ccc(O)cc1)C(=O)N[C@@H](Cc1ccc(O)cc1)C(=O)N[C@@H](CCCNC(=N)N)C(=O)N[C@H](C(=O)N[C@@H](CC(=O)O)C(=O)O)C(C)C)[C@@H](C)O)C(C)C | SH2 domain-containing adapter protein B, SH2 domain (SHB, Homo sapiens, UniProt Q15464) | binding |  |  |  | Kd | 1.82 µM
NC(CC1(C(=O)O)CC2OC(CO)C(O)C(N)C2O1)C(=O)O (stereo not shown) | Glutamate receptor ionotropic, kainate 3 | binding, [3H]kainate displacement | HEK293T/17 membranes | together with: [3H]kainate |  | Ki | 0.397 µM
CC[C@H](C)[C@H](NC(=O)[C@H](Cc1ccccc1)NC(=O)[C@H](CCC(=O)O)NC(=O)[C@H](CCCNC(=N)N)NC(=O)[C@H](C)NC(=O)[C@H](C)NC(=O)[C@H](CCC(N)=O)NC(=O)[C@H](CCC(=O)O)NC(=O)[C@H](CCC(=O)O)NC(=O)[C@H](CC(C)C)NC(=O)[C@H](Cc1ccc(O)cc1)NC(=O)[C@H](CO)NC(=O)[C@H](CO)NC(=O)[C@@H](NC(=O)[C@H](CC(=O)O)NC(=O)[C@H](CO)NC(=O)[C@@H](NC(=O)[C@H](Cc1ccccc1)NC(=O)[C@@H](NC(=O)CNC(=O)[C@H](CCC(=O)O)NC(=O)[C@H](C)NC(=O)CCc1c[nH]cn1)[C@@H](C)O)[C@@H](C)O)C(C)C)C(=O)N[C@@H](C)C(=O)N[C@@H](Cc1c[nH]c2ccccc12)C(=O)N[C@@H](CC(C)C)C(=O)N[C@H](C(=O)N[C@@H](CCCNC(=N)N)C(=O)NCC(=O)N[C@@H](CCCNC(=N)N)C(=O)N[C@@H](CCCCNC(=O)COCCOCCNC(=O)COCCOCCNC(=O)CC[C@H](NC(=O)CCCCCCCCCCCCCCCCC(=O)O)C(=O)O)C(=O)NCC(=O)NCC(=O)N[C@@H](CO)C(=O)N[C@@H](CCCCNc1c(NCCCCCN(O)C(=O)CCC(=O)NCCCCCN(O)C(=O)CCC(=O)NCCCCCN(O)C(C)=O)c(=O)c1=O)C(=O)O)C(C)C [zirconium-89 labelled] |  |  | rat, pancreas | sc, 3 nmol/kg, 168 h, ex vivo |  | tissue uptake | 0.08 %ID/g
COc1ccc(N=Nc2ccc3[nH]cc(CCN(C)C)c3c2)cc1 | HTR5A (Homo sapiens, UniProt P47898) | binding, radioligand binding |  | ambient light |  | Ki | 0.951 µM
COCC1OC2CC(CC(N)C(=O)O)(C(=O)O)OC2C(O)C1O (stereo not shown) | Glutamate receptor ionotropic, kainate 3 | [3H]kainate displacement | HEK-293T/17 membranes |  |  | Ki | 14.5 µM
C[C@H]1CN(c2n[nH]c3nc(N[C@H]4CC[C@H](NS(=O)(=O)CCC(F)(F)F)CC4)ncc23)CCO1 | SWI/SNF-related matrix-associated actin-dependent regulator of chromatin subfamily E member 1 (Homo sapiens, UniProt Q969G3) | Kinobeads competition, item: SMARCE1 |  | 0.032 µM, unit not given | reference: vehicle | remaining binding | 1.13
CO[C@H]1C[C@@H]2CC[C@@H](C)[C@@](O)(O2)C(=O)C(=O)N2CCCC[C@H]2C(=O)O[C@H]([C@H](C)C[C@@H]2CC[C@@H](OC(=O)NCCOCCOCCOCCOCCOCCOCCOCCOCCC(=O)N3CCc4cc(Cn5nc(-c6ccc7oc(N)nc7c6)c6c(N)ncnc65)ccc4C3)[C@H](OC)C2)C[C@@H](O)[C@H](C)/C=C(\C)[C@@H](O)[C@@H](OC)C(=O)[C@H](C)C[C@H](C)/C=C/C=C/C=C/1C |  |  | patients with advanced solid tumours | intravenous, 16 mg weekly, any grade |  | vomiting incidence | 25%
COc1cc2c(Oc3ccc4[nH]c(C)cc4c3F)ccnc2cc1OCC1(N)CC1 |  |  | paediatric recurrent refractory sarcoma | 8 mg/kg |  | grade 3 Vomiting | 0%
COc1cc2c(cc1OC)CN(CCc1ccc(NC(=O)c3cccc4c(=O)c5cccc(OC)c5[nH]c34)cc1)CC2 | SLC6A4 (Homo sapiens, UniProt P31645) | binding |  |  |  | Ki | 0.14 µM
CCOCCn1cnc2nc(NCc3ccc(Cl)c(Cl)c3)[nH]c(=O)c21 | DNA polymerase III PolC V741I | enzyme activity, inhibitor |  | truncated, dGTP omitted, 4% DMSO |  | Ki | 1.22 µM
FCCN1CC=C(c2ccc3c(n2)[nH]c2ccncc23)CC1 | Microtubule-associated protein tau, PSP brain aggregates (MAPT, Homo sapiens, UniProt P10636) | binding | PSP human brain tissue | together with: [3H]PI-2620 |  | Ki | 0.0279 µM
COc1ccc(N2C(=O)N(c3c(C)cccc3Cl)Cc3cnc(Nc4ccc(C5CCN(C)CC5)cc4OC)nc32)nc1 | Myosin-IIIb (MYO3B, Homo sapiens, UniProt Q8WXR4) | kinase activity |  | 0.5 µM |  | inhibition | 16%
COc1cc2c3c(c1OC)-c1c(cccc1OC)CC3N(C)CC2 (racemic) | ADRA1A (Homo sapiens, UniProt P35348) | radioligand binding |  |  |  | Ki | 0.809 µM
Cc1ccc2c(c1)C1(C=C2)CCN(C2Cc3ccccc3CC2O)CC1 (racemic) | Vesicular acetylcholine transporter | radioligand binding | PC12 expressing VAChT | together with: [3H]vesamicol |  | Ki | 0.0072 ± 0.0012 µM
NC(=S)Nc1ccccc1 | Urea transporter 1 | urea transport inhibition |  | together with: thiourea |  | Ki | 400 µM
C=CC(=O)OCCCC | uncharacterized protein (Bradysia odoriphaga, UniProt A0A2S0X9G4) | binding, competitive fluorescence displacement |  |  |  | Ki | > 50 µM
OC1Cc2ccccc2CC1N1CCC2(C=Cc3ccc(F)cc32)CC1 (racemic) | Vesicular acetylcholine transporter | radioligand binding | PC12 expressing VAChT | together with: [3H]vesamicol |  | Ki | 0.006 ± 0.0004 µM
CC(C)C[C@H](NC(=O)CNC(=O)[C@H](C)NC(=O)c1ccc(S(=O)(=O)NC[C@H]2O[C@@H](C)[C@@H](O)[C@@H](O)[C@@H]2O)cc1)C(=O)N[C@@H](C)C(=O)NC[C@@H]1CCN(c2cc3c(cc2F)c(=O)c(C(=O)O)cn3C2CC2)C1 | fucose-binding lectin LecB | binding, competitive fluorescence polarization |  |  |  | Ki | 0.29 ± 0.05 µM
O=C(O)CCC(=O)C(=O)O | HIF1AN (Homo sapiens, UniProt Q9NWT6, Q147A) | cosubstrate |  | pH 7.00, 37.0 °C, mutant Q147A, together with: CTAD peptide 100 µM |  | Ki | 200 µM and ~300 µM

Structure (SMILES) | target or system | assay | system | setting | how to read | endpoint | value
CC(C)C[C@H](NC(=O)[C@@H](NC(=O)[C@H](CO)NC(=O)[C@H](CO)NC(=O)[C@@H](NC(=O)[C@H](CC(=O)O)NC(=O)[C@H](CC(C)C)NC(=O)[C@@H]1CCCN1C(=O)[C@H](CO)NC(=O)c1ccc2c(c1)C(=O)OC21c2ccc(N(C)C)cc2Oc2cc(N(C)C)ccc21)[C@@H](C)O)C(C)C)C(=O)N[C@@H](Cc1ccc(OP(=O)(O)O)cc1)C(=O)N[C@H](C(=O)N[C@@H](C)C(=O)N[C@H](C(=O)N[C@@H](CCC(N)=O)C(=O)N1CCC[C@H]1C(=O)N[C@@H](CC(N)=O)C(=O)N[C@@H](CCC(=O)O)C(=O)N[C@@H](CC(=O)O)C(=O)O)C(C)C)[C@@H](C)O | Ras and Rab interactor 1, SH2 domain (RIN1, Homo sapiens, UniProt Q13671) | binding |  |  |  | Kd | 0.974 µM
CC(=N)S | Urea transporter 1 | urea transport inhibition |  | together with: thiourea |  | Ki | 7000 µM
COc1cccc(-n2nc3c4cc(Cl)ccc4[nH]cc-3c2=O)c1 | Gabrg2/Gabra6 α6+/γ2− interface |  | rat cerebellar membranes | together with: [3H]Ro15-4513, diazepam 50 mM |  | Ki | 0.0154 ± 0.0002 µM
CC[C@H](C)[C@@H]1NC(=O)[C@@H]2CCCN2C(=O)[C@H](CC(C)C)NC(=O)[C@H](CC(C)C)NC(=O)CNC(=O)[C@@H](NC(=O)[C@@H](NC(=O)[C@H](CC(=O)O)NC(=O)CNC(=O)[C@@H](NC(=O)[C@H](C)NC(=O)CNC(=O)[C@H](CCCCN)NC(=O)[C@H](CC(C)C)NC(=O)[C@H](CC(C)C)NC(=O)[C@H](CCCCN)NC(=O)CNC(=O)[C@@H](NC(=O)[C@@H](N)CC(C)C)C(C)C)C(C)C)C(C)C)CSSC[C@@H](C(=O)O)NC1=O |  | RNA-seq, item: Il10 | mouse, traumatic brain injury model, frontal cortex and hippocampus | dose not given | reference: TBI alone | log2 fold change | -6.86
CN1CCN(c2cc(-c3ccncc3)c(-c3ccc4ccccc4c3)nn2)CC1 | MRGPRX1 (Homo sapiens, UniProt Q96LB2) | antagonist, FLIPR |  | 10 µM |  | inhibition | 26.1%
CCCCCCSC[C@H]1CN(Cc2c[nH]c3c(N)ncnc23)C[C@@H]1O | mtnN (Escherichia coli, UniProt P0AF12) |  |  |  |  | Ki | 1.86e-05 µM and 1.9e-05 µM
C[C@@H](O)[C@@H](CO)NC(=O)[C@@H](CCCNC(=N)N)NC(=O)[C@@H]1CCCN1C(=O)[C@@H]1CSSC[C@H](NC(=O)[C@H](Cc2ccccc2)NC(=O)CN2CCN(CC(=O)O)CCN(CC(=O)O)CCN(CC(=O)O)CC2)C(=O)N[C@@H](Cc2ccc(O)cc2)C(=O)N[C@@H](Cc2ccccc2)C(=O)N[C@@H](CCC(N)=O)C(=O)N[C@@H](CC(N)=O)C(=O)N1 [gallium-68 labelled] |  |  | Wistar rat, bone | intravenous, 8 MBq, 60 min, group mean |  | tissue uptake | 0.27 %ID/g
N[C@@H](Cc1cc(I)c(O)c(I)c1)C(=O)O | Cytochrome P450 2E1 (CYP2E1, Homo sapiens, UniProt P05181) | p-nitrophenol hydroxylation, inhibitor | baculosomes | 10 min, with additive 1 µM |  | Ki | 0.5 µM
Cc1ccc(Nc2cc(O)nc(O)n2)cc1Cl | DNA polymerase III PolC V741I | enzyme activity, inhibitor |  | truncated, dGTP omitted, 4% DMSO |  | Ki | 6.2 µM
CC(C)C[C@H](NC(=O)CNC(=O)[C@H](C)NC(=O)c1ccc(S(=O)(=O)NC[C@H]2O[C@@H](C)[C@@H](O)[C@@H](O)[C@@H]2O)cc1)C(=O)N[C@@H](C)C(=O)N[C@H]1CCN(c2cc3c(cc2F)c(=O)c(C(=O)O)cn3C2CC2)C1 | fucose-binding lectin LecB | binding, competitive fluorescence polarization |  |  |  | Ki | 0.27 ± 0.06 µM
COc1ccccc1-n1nc2c3cc(Cl)ccc3[nH]cc-2c1=O | Gabrg2/Gabra6 α6+/γ2− interface |  | rat cerebellar membranes | together with: [3H]Ro15-4513, diazepam 50 mM |  | Ki | 0.329 ± 0.076 µM
COc1cc2c(cc1OC)-c1c(OC)c(OC)cc3c1[C@H](C2)N(C)CC3 | HTR2A (Homo sapiens, UniProt P28223) | binding |  | secondary |  | Ki | 1.16 µM
Cn1cnc2nc(NCc3ccc(Cl)c(Cl)c3)[nH]c(=O)c21 | DNA polymerase III PolC V741I | enzyme activity, inhibitor |  | truncated, dGTP omitted, 4% DMSO |  | Ki | 0.89 µM
CC[C@@]1(O)C[C@H](O[C@H]2C[C@H](N(C)C)[C@H](O[C@H]3C[C@H](O)[C@H](O[C@H]4CCC(=O)[C@H](C)O4)[C@H](C)O3)[C@H](C)O2)c2c(cc3c(c2O)C(=O)c2c(O)cccc2C3=O)[C@H]1C(=O)OC | Cytochrome P450 2J2 (CYP2J2, Homo sapiens, UniProt P51589) | competitive fluorescence polarization | phosphate buffer, cholate | 2 min, pH 7.4, together with: ebastine 60 µM |  | Ki | 35.6 ± 2.56 µM
COc1cc(Nc2ncc(F)c(Nc3ccc4c(n3)NC(=O)C(C)(C)O4)n2)cc(OC)c1OC | QRFPR (Homo sapiens, UniProt Q96P65) |  |  |  |  | IC50 | > 10 µM
C[C@]1(CO)Cc2ncn(-c3ccc(C#N)c(Cl)c3)c2C(=O)O1 |  |  | human | 20 mg single dose |  | subjects with drug-related dysgeusia | 0%
NC(=S)Nc1ccc([N+](=O)[O-])cc1 | Urea transporter 1 | urea transport inhibition |  | together with: thiourea |  | Ki | 30 µM
NC(=O)c1ccc[n+]([C@@H]2O[C@H](COP(=O)(O)OP(=O)(O)OC[C@H]3O[C@@H](n4cnc5c(N)ncnc54)[C@H](OP(=O)(O)O)[C@@H]3O)[C@@H](O)[C@H]2O)c1 | chnB (Rhodococcus sp. HI-31, UniProt C0STX7, F507Y) |  |  |  |  | Ki | 192 µM
NC(=O)CI | Urea transporter 1 | urea transport inhibition |  | together with: thiourea |  | Ki | 12000 µM
CC1=Cc2ccccc2C12CCN(C1Cc3ccccc3CC1O)CC2 (racemic) | Vesicular acetylcholine transporter | radioligand binding | PC12 expressing VAChT | together with: [3H]vesamicol |  | Ki | 0.023 ± 0.001 µM
